# Measurements from different studies.
# Each line is one published result; not all experiments were run side by side.
Structure (SMILES),tested on,test,test system,conditions,scale,quantity,value
Cn1ncc2cc(-c3cncc(Cl)c3N3CCC4(CCNC4=O)CC3)ccc21,LS174T,"gene expression, microarray, item: KRT17 mRNA",,"concentration not given, 4 h",relative to: untreated cells,log2 fold change,2.91
c1ccc(-c2n[nH]cc2-c2ccnc3ccccc23)nc1,PTK2 (Candida albicans),"kinase binding, MIB/MS competition",Candida albicans lysate,10 µM,relative to: DMSO,log2 fold change,0.15
CCN(CC)CC(=O)Nc1cccc(-n2cc(-c3ccc4ccc(-c5cn(-c6cccc(NC(=O)CN(CC)CC)c6)nn5)cc4c3)nn2)c1,RCC4,"PCR angiogenesis array, item: TYMP",,"5 x IC50, 2 h, normoxia",relative to: untreated,fold regulation,1.09 fold
CC(C)c1ccc(N(C)c2ccc3c(c2)OCC[C@H]3CNc2cnccc2C(=O)O)cc1,KNS-81,"cell growth, CellTiter-Glo",,7 days,,IC50,≥ 10000 nM
CN1CCCNC(=O)c2cccc(c2)C(=O)NCCCN(C)CCCNc2cccc3c2C(=O)c2cccc(c2C3=O)NCCC1,SAS,"RNA-Seq, item: TENT2 mRNA",,"1 µM, 6 h",relative to: untreated cells,log2 fold change,-2.14
C=CC(=O)N1[C@@H](c2ccc3c(c2)OCO3)c2[nH]c3ccccc3c2C[C@H]1C(=O)N1CCN(C)CC1,human cyclin E1 wild type-3xFLAG:CDK2,"co-IP with TMT proteomics, item: SAMHD1",,"concentration not given, Q9Y3Z3",relative to: wild type DMSO,relative co-enrichment,85%
CNS(=O)(=O)Nc1nccc(Cc2c(C)c3ccc(Oc4ncccc4F)cc3oc2=O)c1F,Hs 294T,cell viability,,7 days,,IC50,5.06 nM
CCOc1cncc(-c2ccc(NC(=O)C3(c4ccnc(NS(=O)(=O)C5CC5)n4)CCOCC3)nc2)n1,JHH-6,"cell growth, CellTiter-Glo",,72 h,,IC50,1890 nM
O=c1[nH]cc(C(c2cccc(C(F)(F)F)c2)c2c[nH]c(=O)[nH]c2=O)c(=O)[nH]1,HIV-1 subtype C,"p24 antigen production, p24 ELISA",,125 µg/mL,,inhibition,42%
Cc1ncsc1-c1ccc(C(C)NC(=O)C2CC(O)CN2C(=O)C(NC(=O)CCCCCCCCCCN2CCCC(Nc3ncc(Cl)c(Nc4ccccc4S(=O)(=O)C(C)C)n3)C2)C(C)(C)C)cc1 (stereo not drawn),22Rv1,"RNA-seq, item: NOTCH1 mRNA",,concentration not given,relative to: DMSO,log2 fold change,-1.03
CC1=C[C@H](O/C=C2/C(=O)O[C@@H]3c4ccccc4C[C@H]23)OC1=O,Arabidopsis thaliana,,Col-0,,,maximum germination,47%
Nc1ncc(-c2cc(-c3cnn(CC(F)(F)F)c3)ncc2F)nc1C(=O)NC1CNCC(F)C1 (stereo not drawn),TRPM6,KINOMEscan,,1 µM,relative to: DMSO control,remaining binding,100%
COC1CN([C@H]2CC[C@H]([C@@]3(C)Oc4c(Cl)cc(C(=O)NCc5c(SC)cc(C)[nH]c5=O)c(C)c4O3)CC2)C1,,"RNA-seq, item: DNASE2 mouse homolog","mouse, HT-1376 xenograft, whole blood",dose not given,relative to: vehicle,log2 fold change,0.0942
C=C(NC(=O)c1csc(-c2nc3c(cc2O)-c2nc(cs2)C(=O)NC(C(C)O)C(=O)NC(=C(C)OC)c2nc(cs2)C(=O)NC2c4nc(cs4)C(=O)NC(COC(=O)c4c5c6c(cccc6n4O)COC(=O)C(OC4CC(C)(O)C(N(C)C)C(C)O4)C2OC5)c2nc-3cs2)n1)C(N)=O (stereo not drawn),Staphylococcus epidermidis,,MRSE,10 isolates,,MIC50,7.8 ng/mL
C=CC(=O)Nc1cccc(Cn2ncc3cnc(Nc4cnn(CCOC)c4)nc32)c1,TAK1 human,"binding, KINOMEscan",,100 nM,lower = stronger binding,percent of control,79%

# Repeated from above:
Structure (SMILES),tested on,test,test system,conditions,scale,quantity,value
c1ccc(-c2n[nH]cc2-c2ccnc3ccccc23)nc1,PTK2 (Candida albicans),"kinase binding, MIB/MS competition",Candida albicans lysate,10 µM,relative to: DMSO,log2 fold change,0.15
CCN(CC)CC(=O)Nc1cccc(-n2cc(-c3ccc4ccc(-c5cn(-c6cccc(NC(=O)CN(CC)CC)c6)nn5)cc4c3)nn2)c1,RCC4,"PCR angiogenesis array, item: TYMP",,"5 x IC50, 2 h, normoxia",relative to: untreated,fold regulation,1.09 fold
